Measurements from different studies.
Each numbered part is a random draw from the data of one study; scales do not carry over between parts.
Sequence of UniProt Q8TD19 (whole entry, looked up): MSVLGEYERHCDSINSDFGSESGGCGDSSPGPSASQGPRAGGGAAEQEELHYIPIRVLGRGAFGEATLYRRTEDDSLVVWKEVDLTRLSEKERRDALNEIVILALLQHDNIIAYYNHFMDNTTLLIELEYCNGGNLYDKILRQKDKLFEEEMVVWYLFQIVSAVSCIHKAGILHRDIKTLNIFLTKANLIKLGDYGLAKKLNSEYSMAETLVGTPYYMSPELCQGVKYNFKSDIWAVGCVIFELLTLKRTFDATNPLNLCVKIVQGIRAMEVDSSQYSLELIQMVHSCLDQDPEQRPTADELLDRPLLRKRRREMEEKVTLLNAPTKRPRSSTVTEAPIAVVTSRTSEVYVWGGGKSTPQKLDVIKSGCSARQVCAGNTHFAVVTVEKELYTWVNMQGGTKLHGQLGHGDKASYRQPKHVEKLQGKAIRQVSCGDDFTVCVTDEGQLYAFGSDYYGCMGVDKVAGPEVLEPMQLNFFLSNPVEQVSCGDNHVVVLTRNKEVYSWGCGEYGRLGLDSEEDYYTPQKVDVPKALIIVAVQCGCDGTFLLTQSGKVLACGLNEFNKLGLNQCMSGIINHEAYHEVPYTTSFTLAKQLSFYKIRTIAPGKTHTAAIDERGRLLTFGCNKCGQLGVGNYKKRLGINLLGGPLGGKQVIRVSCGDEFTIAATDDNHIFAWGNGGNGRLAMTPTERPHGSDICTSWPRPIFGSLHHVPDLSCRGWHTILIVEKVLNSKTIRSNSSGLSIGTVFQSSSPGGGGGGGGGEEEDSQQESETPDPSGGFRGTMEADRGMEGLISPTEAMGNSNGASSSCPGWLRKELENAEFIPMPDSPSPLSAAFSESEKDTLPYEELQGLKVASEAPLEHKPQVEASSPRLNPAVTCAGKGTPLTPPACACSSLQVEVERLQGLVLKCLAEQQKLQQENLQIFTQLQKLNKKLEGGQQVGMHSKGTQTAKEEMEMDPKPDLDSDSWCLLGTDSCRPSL
Sequence of UniProt P07949 (whole entry, unmodified, looked up): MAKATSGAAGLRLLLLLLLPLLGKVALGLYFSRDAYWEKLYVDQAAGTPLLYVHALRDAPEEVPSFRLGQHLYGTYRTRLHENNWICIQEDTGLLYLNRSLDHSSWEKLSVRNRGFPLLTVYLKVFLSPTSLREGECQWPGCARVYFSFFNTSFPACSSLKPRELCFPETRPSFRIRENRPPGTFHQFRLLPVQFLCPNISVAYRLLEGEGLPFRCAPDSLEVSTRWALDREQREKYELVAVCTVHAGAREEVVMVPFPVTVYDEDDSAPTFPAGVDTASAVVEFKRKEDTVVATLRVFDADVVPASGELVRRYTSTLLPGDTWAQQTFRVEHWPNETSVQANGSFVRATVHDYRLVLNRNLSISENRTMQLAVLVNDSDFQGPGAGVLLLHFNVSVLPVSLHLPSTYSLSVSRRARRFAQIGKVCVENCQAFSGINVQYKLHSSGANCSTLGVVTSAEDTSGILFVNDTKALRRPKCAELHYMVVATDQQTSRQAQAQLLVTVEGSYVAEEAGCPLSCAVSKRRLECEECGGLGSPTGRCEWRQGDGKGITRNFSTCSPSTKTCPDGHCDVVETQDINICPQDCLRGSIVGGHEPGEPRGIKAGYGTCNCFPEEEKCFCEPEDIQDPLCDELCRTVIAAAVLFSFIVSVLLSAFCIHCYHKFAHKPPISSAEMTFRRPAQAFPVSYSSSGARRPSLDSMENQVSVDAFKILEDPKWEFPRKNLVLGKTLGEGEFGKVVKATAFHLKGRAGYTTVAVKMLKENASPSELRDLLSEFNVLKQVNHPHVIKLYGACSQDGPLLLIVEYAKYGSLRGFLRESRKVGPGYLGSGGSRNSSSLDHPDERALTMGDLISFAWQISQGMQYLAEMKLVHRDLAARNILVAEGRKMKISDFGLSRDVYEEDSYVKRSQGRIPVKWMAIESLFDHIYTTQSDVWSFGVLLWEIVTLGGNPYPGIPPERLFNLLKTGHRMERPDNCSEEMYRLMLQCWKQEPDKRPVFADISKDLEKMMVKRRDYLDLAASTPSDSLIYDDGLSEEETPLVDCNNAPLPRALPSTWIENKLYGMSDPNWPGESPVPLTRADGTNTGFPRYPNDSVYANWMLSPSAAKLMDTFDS
Sequence of UniProt Q96NX5 (whole entry, looked up): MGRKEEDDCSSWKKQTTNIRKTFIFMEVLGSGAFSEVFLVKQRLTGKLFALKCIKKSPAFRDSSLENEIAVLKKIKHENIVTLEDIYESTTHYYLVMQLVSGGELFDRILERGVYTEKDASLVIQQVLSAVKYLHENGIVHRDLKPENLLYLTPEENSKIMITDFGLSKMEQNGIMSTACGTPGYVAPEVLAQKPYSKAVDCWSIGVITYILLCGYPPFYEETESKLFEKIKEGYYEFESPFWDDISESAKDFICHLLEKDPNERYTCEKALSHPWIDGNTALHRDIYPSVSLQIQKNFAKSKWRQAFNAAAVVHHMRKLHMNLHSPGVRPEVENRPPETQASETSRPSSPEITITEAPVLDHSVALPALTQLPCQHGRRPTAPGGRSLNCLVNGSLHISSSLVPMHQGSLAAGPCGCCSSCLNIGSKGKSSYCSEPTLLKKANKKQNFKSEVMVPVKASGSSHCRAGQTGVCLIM
Sequence of UniProt P10721 (whole entry, unmodified, looked up): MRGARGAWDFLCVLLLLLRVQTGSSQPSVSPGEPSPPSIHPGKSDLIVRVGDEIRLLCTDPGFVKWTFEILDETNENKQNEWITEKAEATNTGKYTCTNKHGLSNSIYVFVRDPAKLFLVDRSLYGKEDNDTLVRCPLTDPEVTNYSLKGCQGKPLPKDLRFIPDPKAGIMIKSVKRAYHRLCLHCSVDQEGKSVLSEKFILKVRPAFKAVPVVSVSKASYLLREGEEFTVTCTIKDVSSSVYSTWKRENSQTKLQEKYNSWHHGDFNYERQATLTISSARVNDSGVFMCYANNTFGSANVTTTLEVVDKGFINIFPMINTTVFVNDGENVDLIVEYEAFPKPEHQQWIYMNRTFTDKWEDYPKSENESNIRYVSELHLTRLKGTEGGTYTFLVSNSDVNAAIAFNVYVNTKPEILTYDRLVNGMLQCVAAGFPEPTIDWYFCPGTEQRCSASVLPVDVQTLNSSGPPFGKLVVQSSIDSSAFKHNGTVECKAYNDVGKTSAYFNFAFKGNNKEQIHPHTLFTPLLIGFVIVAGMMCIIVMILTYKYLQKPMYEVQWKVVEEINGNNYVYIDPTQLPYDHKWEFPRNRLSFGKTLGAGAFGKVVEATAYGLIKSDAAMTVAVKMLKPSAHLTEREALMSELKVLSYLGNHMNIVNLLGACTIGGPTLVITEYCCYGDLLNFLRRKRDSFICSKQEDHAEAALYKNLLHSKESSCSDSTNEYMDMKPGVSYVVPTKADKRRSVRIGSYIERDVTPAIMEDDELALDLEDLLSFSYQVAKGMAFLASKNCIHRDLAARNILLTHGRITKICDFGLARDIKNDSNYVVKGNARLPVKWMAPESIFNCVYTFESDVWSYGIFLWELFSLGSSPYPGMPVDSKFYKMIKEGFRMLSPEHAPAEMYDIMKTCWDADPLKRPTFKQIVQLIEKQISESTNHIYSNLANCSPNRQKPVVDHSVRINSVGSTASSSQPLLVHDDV
Sequence of UniProt P50613 (whole entry, looked up): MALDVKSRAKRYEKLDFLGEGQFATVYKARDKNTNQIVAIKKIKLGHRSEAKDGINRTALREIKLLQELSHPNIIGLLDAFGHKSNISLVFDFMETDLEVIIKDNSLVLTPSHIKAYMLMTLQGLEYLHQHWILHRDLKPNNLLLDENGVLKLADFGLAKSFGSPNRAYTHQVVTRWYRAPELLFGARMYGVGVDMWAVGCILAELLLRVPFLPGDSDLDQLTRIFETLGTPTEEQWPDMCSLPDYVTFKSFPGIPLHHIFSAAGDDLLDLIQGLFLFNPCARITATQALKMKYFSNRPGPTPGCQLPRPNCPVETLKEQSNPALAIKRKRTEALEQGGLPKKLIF
Sequence of UniProt Q00536 (whole entry, looked up): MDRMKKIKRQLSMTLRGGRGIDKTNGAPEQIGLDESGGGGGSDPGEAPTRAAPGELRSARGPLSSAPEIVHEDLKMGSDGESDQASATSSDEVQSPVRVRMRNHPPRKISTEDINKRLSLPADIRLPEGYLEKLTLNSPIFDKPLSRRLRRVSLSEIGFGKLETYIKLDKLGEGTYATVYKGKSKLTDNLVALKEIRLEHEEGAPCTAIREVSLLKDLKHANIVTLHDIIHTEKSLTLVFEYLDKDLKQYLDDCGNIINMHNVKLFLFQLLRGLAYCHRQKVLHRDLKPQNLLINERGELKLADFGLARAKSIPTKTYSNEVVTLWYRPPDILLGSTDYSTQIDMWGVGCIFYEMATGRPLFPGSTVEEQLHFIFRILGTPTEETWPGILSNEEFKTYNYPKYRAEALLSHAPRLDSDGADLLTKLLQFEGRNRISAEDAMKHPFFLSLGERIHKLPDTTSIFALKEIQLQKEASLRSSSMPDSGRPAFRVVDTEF

Series 1 — read-out: cell-free assay; method: competition with immobilised ligand; tested at: 1 µM
SMILES: CCCOc1ccc([C@@H]2[C@@H](C(=O)O)[C@H](c3ccc4c(c3)OCO4)CN2CC(=O)Nc2c(CC)cccc2CC)cc1
target | remaining binding [%]
DAPK2 (Homo sapiens, UniProt Q9UIK4) | 80
ERBB2 (Homo sapiens, UniProt P04626) | 80
STK32C (Homo sapiens, UniProt Q86UX6) | 100
RET (Homo sapiens, UniProt P07949, V804L) | 97
Tyrosine-protein kinase ABL1, phosphorylated (ABL1, Homo sapiens, UniProt P00519, F317L) | 81
TNIK (Homo sapiens, UniProt Q9UKE5) | 100
CDK16 (Homo sapiens, UniProt Q00536) | 89
Tyrosine-protein kinase ABL1, non-phosphorylated (ABL1, Homo sapiens, UniProt P00519, Q252H) | 92
SBK3 (Homo sapiens, UniProt P0C264) | 85
KIT (Homo sapiens, UniProt P10721, L576P) | 100
CDKL1 (Homo sapiens, UniProt Q00532) | 77

Series 2 — read-out: enzyme activity; mode: inhibitor; tested at: 10 µM
Target: Calcium/calmodulin-dependent protein kinase type II subunit alpha (CAMK2A, Homo sapiens, UniProt Q9UQM7)
Sequence of UniProt Q9UQM7 (whole entry, looked up): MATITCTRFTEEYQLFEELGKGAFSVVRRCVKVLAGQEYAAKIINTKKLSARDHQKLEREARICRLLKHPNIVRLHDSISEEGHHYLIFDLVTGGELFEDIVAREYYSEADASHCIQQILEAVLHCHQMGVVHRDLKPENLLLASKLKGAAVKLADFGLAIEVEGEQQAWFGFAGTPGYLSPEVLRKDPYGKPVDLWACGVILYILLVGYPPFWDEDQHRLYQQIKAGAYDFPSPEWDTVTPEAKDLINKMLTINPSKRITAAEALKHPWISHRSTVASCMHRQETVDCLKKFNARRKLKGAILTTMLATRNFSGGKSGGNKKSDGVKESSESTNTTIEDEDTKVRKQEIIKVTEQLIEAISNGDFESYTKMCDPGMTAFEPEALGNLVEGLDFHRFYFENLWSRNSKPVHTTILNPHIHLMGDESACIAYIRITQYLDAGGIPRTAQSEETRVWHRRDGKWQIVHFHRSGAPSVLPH
SMILES | inhibition [%]
COc1ccc2ccc(=O)oc2c1 | -13
O=C(O)CCCCCCCC(=O)O | 16
Cc1ncc([N+](=O)[O-])n1CCO | -3
COC(=O)C1=CO[C@@H](O[C@@H]2O[C@H](CO)[C@@H](O)[C@H](O)[C@H]2O)[C@@H]2[C@@H](C)[C@@H](O)C[C@H]12 | -18
CC[C@@H](C)[C@H](N)C(=O)O | -1
O=C(/C=C/c1ccc(O)cc1)c1c(O)cc(O)cc1O | 35
C/C=C/SC[C@H](N)C(=O)O | -11
C[C@@H](CO[C@@H]1O[C@H](CO)[C@@H](O)[C@H](O)[C@H]1O)[C@@H]1CC[C@@]2(CC[C@]3(C)[C@H](CC[C@@H]4[C@@]5(C)CC[C@H](O[C@@H]6O[C@H](CO)[C@@H](O)[C@H](O)[C@H]6O[C@@H]6OC[C@@H](O)[C@H](O)[C@H]6O)[C@@](C)(CO[C@@H]6O[C@H](CO)[C@@H](O)[C@H](O)[C@H]6O)[C@@H]5CC[C@]43C)[C@H]2O)CO1 | -74
CS/C=C/C(=O)NCCO[C@@H]1O[C@H](CO)[C@@H](O)[C@H](O)[C@H]1O | 19

Series 3 — read-out: enzyme activity; mode: inhibitor; tested at: 0.5 µM; relative to: control
Compound: COc1ccc(S(=O)(=O)N(CCO)c2ccccc2CN(C)CC=Cc2ccc(Cl)cc2)cc1
target | remaining activity [%]
PTK2B (Homo sapiens, UniProt Q14289) | 106
ROS1 (Homo sapiens, UniProt P08922) | 95.4
Cyclin-dependent kinase 2, with cyclin A (CDK2, Homo sapiens, UniProt P24941) | 99.7
MAP3K2 (Homo sapiens, UniProt Q9Y2U5) | 95.3
HIPK3 (Homo sapiens, UniProt Q9H422) | 104
NEK9 (Homo sapiens, UniProt Q8TD19) | 91.9
CAMK1G (Homo sapiens, UniProt Q96NX5) | 101
MAPK10 (Homo sapiens, UniProt P53779) | 95.5
RET (Homo sapiens, UniProt P07949) | 103
BRSK1 (Homo sapiens, UniProt Q8TDC3) | 98.4
CDK7 (Homo sapiens, UniProt P50613) | 97.6
PKN2 (Homo sapiens, UniProt Q16513) | 101
DMPK (Homo sapiens, UniProt Q09013) | 105
MAP3K8 (Homo sapiens, UniProt P41279) | 96.3
PRKD1 (Homo sapiens, UniProt Q15139) | 100
CAMK1D (Homo sapiens, UniProt Q8IU85) | 103
CSNK2A2 (Homo sapiens, UniProt P19784) | 93.7
Aurora kinase A (AURKA, Homo sapiens, UniProt O14965) | 97.5
SLK (Homo sapiens, UniProt Q9H2G2) | 103
NTRK3 (Homo sapiens, UniProt Q16288) | 95.3
GRK5 (Homo sapiens, UniProt P34947) | 94.1
DYRK4 (Homo sapiens, UniProt Q9NR20) | 99.6

Series 4 — read-out: kinase activity; mode: inhibitor; tested at: 1 µM
Compound: CC(C)S(=O)(=O)c1ccc2nccc(Nc3ccc4sc(C5CCCC5)nc4c3)c2c1.Cl
target | remaining activity [%]
HIPK1 (Homo sapiens, UniProt Q86Z02) | 105
NEK9 (Homo sapiens, UniProt Q8TD19) | 90
PIM1 (Homo sapiens, UniProt P11309) | 100
GRK3 (Homo sapiens, UniProt P35626) | 102
CAMK1G (Homo sapiens, UniProt Q96NX5) | 104
MAP3K7 (Homo sapiens, UniProt O43318) | 101
MAP3K10 (Homo sapiens, UniProt Q02779) | 96
CSNK1E (Homo sapiens, UniProt P49674) | 97
PDK2 (Homo sapiens, UniProt Q15119) | 99
BMP2K (Homo sapiens, UniProt Q9NSY1) | 99
MAP3K5 (Homo sapiens, UniProt Q99683) | 106
RPS6KA3 (Homo sapiens, UniProt P51812) | 108
NEK1 (Homo sapiens, UniProt Q96PY6) | 86
BLK (Homo sapiens, UniProt P51451) | 81
PTK6 (Homo sapiens, UniProt Q13882) | 26
HASPIN (Homo sapiens, UniProt Q8TF76) | 85

Some of these lines once more (series 2):
SMILES | inhibition [%]
Cc1ncc([N+](=O)[O-])n1CCO | -3
COC(=O)C1=CO[C@@H](O[C@@H]2O[C@H](CO)[C@@H](O)[C@H](O)[C@H]2O)[C@@H]2[C@@H](C)[C@@H](O)C[C@H]12 | -18
CC[C@@H](C)[C@H](N)C(=O)O | -1
O=C(/C=C/c1ccc(O)cc1)c1c(O)cc(O)cc1O | 35
C/C=C/SC[C@H](N)C(=O)O | -11
C[C@@H](CO[C@@H]1O[C@H](CO)[C@@H](O)[C@H](O)[C@H]1O)[C@@H]1CC[C@@]2(CC[C@]3(C)[C@H](CC[C@@H]4[C@@]5(C)CC[C@H](O[C@@H]6O[C@H](CO)[C@@H](O)[C@H](O)[C@H]6O[C@@H]6OC[C@@H](O)[C@H](O)[C@H]6O)[C@@](C)(CO[C@@H]6O[C@H](CO)[C@@H](O)[C@H](O)[C@H]6O)[C@@H]5CC[C@]43C)[C@H]2O)CO1 | -74
CS/C=C/C(=O)NCCO[C@@H]1O[C@H](CO)[C@@H](O)[C@H](O)[C@H]1O | 19
